Results gathered from unrelated publications.
Protocols differ between the studies behind these lines. ± marks the error that the study gave.
Organism: Leishmania amazonensis

Structure (SMILES)	test	test system	setting	measurement	result
O=[N+]([O-])/C=C/c1ccc(Br)o1	motility arrest	promastigotes	72 h, 26 °C	minimal parasiticidal concentration	9.5 ± 0.4 µM
COC(=O)CCn1c2ccc([N+](=O)[O-])cc2c(=O)n1Cc1ccccc1	parasite growth, resazurin		72 h, promastigote	IC50	0.6 µM
O=[N+]([O-])/C=C/c1ccco1	motility arrest	promastigotes	72 h, 26 °C	minimal parasiticidal concentration	8.1 ± 0.4 µM
N#C/C=C/C(=O)Oc1cccc(F)c1	parasite growth, resazurin	mouse Macrophage	24 h, intracellular, amastigote	IC50	48 µM
O=c1c2cc([N+](=O)[O-])ccc2n(CCO)n1Cc1ccccc1	parasite growth, imaging	mouse Peritoneal macrophage	48 h, intracellular, amastigote	IC50	9.1 µM
N#C/C=C/C(=O)Oc1ccc(Br)cc1	parasite growth, resazurin		72 h, promastigote	IC50	8.14 µM
O=[N+]([O-])/C(Br)=C/c1ccco1	motility arrest	promastigotes	72 h, 26 °C	minimal parasiticidal concentration	8.1 ± 0.4 µM
O=c1c2cc([N+](=O)[O-])ccc2n(CCN2CCCC2)n1Cc1ccccc1	parasite growth, resazurin		72 h, promastigote	IC50	0.87 µM
COc1ccc(OC(=O)/C=C/C#N)cc1	parasite growth, resazurin	mouse Macrophage	24 h, intracellular, amastigote	IC50	45.8 µM
CCOC(=O)c1csc(NN=Cc2ccc(Cl)cc2)n1	parasite growth		72 h, promastigote	IC50	145 µM
